Experimental data pooled from the literature.
Compare with care: the assays were run in different laboratories.
Organism: Escherichia coli

Structure (SMILES) = CC(C)c1cccc2c(-c3ccc(F)cc3)c(C(=O)O)[nH]c12; system = NDM-1 producing; setting = compound alone; MIC = > 2000 µM
Structure (SMILES) = CC(C)C[C@@H]1NC(=O)[C@H](CCCCN)NC(=O)CNC(=O)[C@H]2CCCN2C(=O)[C@H](CCCCN)NC(=O)[C@H](CC(C)C)NC(=O)[C@H](CCCCN)NC(=O)[C@H](CC(C)C)NC(=O)[C@H](CCCCN)NC(=O)C(N)CCC=CCCC(C(N)=O)NC(=O)[C@H](CCCCN)NC(=O)[C@H](CC(C)C)NC(=O)[C@H](CCCCN)NC1=O (some centres unmarked); assay = broth microdilution; system = ATCC 25922, Mueller-Hinton broth; setting = 18 h, 37 °C; MIC = 8 µM
Structure (SMILES) = CC[C@H](C)[C@H](NC(=O)[C@@H](CCCNC(=N)N)NC(=O)[C@H](CCCNC(=N)N)NC(=O)[C@@H]1CCCN1C(=O)[C@@H]1CCCN1C(=O)[C@H](Cc1c[nH]c2ccccc12)NC(=O)[C@@H]1CCCN1C(=O)[C@H](CCCNC(=N)N)NC(=O)[C@@H]1CCCN1C(=O)[C@H](CC(C)C)NC(=O)[C@H](Cc1ccc(O)cc1)NC(=O)[C@@H]1CCCN1C(=O)[C@@H]1CCCN1C(=O)[C@H](CCCCN)NC(=O)[C@H](CC(=O)O)NC(=O)[C@@H](N)C(C)C)C(=O)N[C@@H](Cc1ccc(O)cc1)C(=O)N[C@@H](CC(N)=O)C(=O)N[C@H](CCCNC(=N)N)C(N)=O; assay = broth microdilution; system = MC4100; setting = 18 h, 37 °C, 25% MHB2; MIC = 8 µg/mL
Structure (SMILES) = CC[C@H](C)[C@H](NC(=O)[C@@H](NC(=O)[C@H](CCCCN)NC(=O)[C@H](CCC(N)=O)NC(=O)[C@@H](NC(=O)[C@H](Cc1c[nH]c2ccccc12)NC(=O)[C@H](CCCCN)NC(=O)[C@H](CCCCN)NC(=O)[C@H](CC(C)C)NC(=O)[C@H](CCCNC(=N)N)NC(=O)[C@H](Cc1ccccc1)NC(=O)[C@@H](N)C(C)C)[C@@H](C)CC)C(C)C)C(N)=O; setting = 24 h, 37 °C, Mueller-Hinton broth, MgCl2 1 mM; MIC = 64 µM
Structure (SMILES) = C[C@@H](O)[C@H](NC(=O)[C@H](Cc1c[nH]c2ccccc12)NC(=O)[C@H](CCCNC(=N)N)NC(=O)[C@H](Cc1c[nH]c2ccccc12)NC(=O)[C@H](CCCNC(=N)N)NC(=O)CNC(=O)[C@@H](NC(=O)[C@H](CCCNC(=N)N)NC(=O)[C@H](CCCNC(=N)N)NC(=O)[C@H](CC(N)=O)NC(=O)[C@H](Cc1c[nH]c2ccccc12)NC(=O)[C@H](CCCNC(=N)N)NC(=O)[C@H](Cc1c[nH]c2ccccc12)NC(=O)c1ccccc1)[C@@H](C)O)C(=O)NCC(=O)N1CCC[C@H]1C(N)=O; system = DH5α; setting = 16 h, 37 °C; MIC = 50 µM
Structure (SMILES) = COc1cccc(OC)c1C(=O)N[C@@H]1C(=O)N2[C@@H]1SC(C)(C)[C@@H]2C(=O)O; assay = microbial growth, broth dilution; system = K88; MIC = > 128 µM
Structure (SMILES) = CC[C@H](C)[C@H](NC(=O)[C@@H](CCCNC(=N)N)NC(=O)[C@H](CCCNC(=N)N)NC(=O)[C@H](CCC(=O)O)NC(=O)[C@H](Cc1c[nH]c2ccccc12)NC(=O)[C@H](CCCNC(=N)N)NC(=O)[C@@H]1CCCN1C(=O)[C@H](CCCNC(=N)N)NC(=O)[C@@H]1CCCN1C(=O)[C@H](CC(C)C)NC(=O)[C@H](Cc1ccc(O)cc1)NC(=O)[C@@H]1CCCN1C(=O)[C@@H]1CCCN1C(=O)[C@H](CCCCN)NC(=O)[C@H](CC(=O)O)NC(=O)[C@@H](N)C(C)C)C(=O)N[C@@H](Cc1ccc(O)cc1)C(=O)N[C@@H](CC(N)=O)C(=O)N[C@H](CCCNC(=N)N)C(N)=O; assay = broth microdilution; system = BW25113; setting = 18 h, 37 °C, 25% MHB2; MIC = 16 µg/mL
Structure (SMILES) = CC(=O)N[C@H](Cc1cccc(F)c1)C(=O)N[C@@H](CCN)C(=O)N[C@H](C(=O)N[C@@H](CCN)C(=O)N[C@H]1CCNC(=O)[C@H]([C@@H](C)O)NC(=O)[C@H](CCN)NC(=O)[C@H](CCN)NC(=O)[C@H](CC(C)C)NC(=O)[C@@H](Cc2ccccc2)NC(=O)[C@H](CCN)NC1=O)[C@@H](C)O; assay = broth microdilution; system = ATCC 25922, colistin-susceptible; MIC = 0.25 to 0.5 µg/mL
Structure (SMILES) = CC(C)C[C@H](NC(=O)[C@@H](NC(=O)[C@H](CCCCN)NC(=O)[C@H](CCCCN)NC(=O)[C@H](CC(C)C)NC(=O)[C@H](Cc1c[nH]c2ccccc12)NC(=O)[C@H](CCCCN)NC(=O)[C@H](Cc1c[nH]c2ccccc12)NC(=O)[C@H](CC(C)C)NC(=O)[C@H](CCCCN)NC(=O)[C@H](CCCCN)NC(=O)[C@@H](N)C(C)C)C(C)C)C(N)=O; setting = 24 h, 37 °C, Mueller-Hinton broth, CaCl2 2.5 mM; MIC = 64 µM
Structure (SMILES) = CC[C@H](C)[C@H](NC(=O)[C@@H](CCCNC(=N)N)NC(=O)[C@H](CCCNC(=N)N)NC(=O)[C@H](CCCN)NC(=O)[C@H](Cc1c[nH]c2ccccc12)NC(=O)[C@H](CCCNC(=N)N)NC(=O)[C@@H]1CCCN1C(=O)[C@H](CCCNC(=N)N)NC(=O)[C@@H]1CCCN1C(=O)[C@H](CC(C)C)NC(=O)[C@H](Cc1ccc(O)cc1)NC(=O)[C@@H]1CCCN1C(=O)[C@@H]1CCCN1C(=O)[C@H](CCCCN)NC(=O)[C@H](CC(=O)O)NC(=O)[C@@H](N)C(C)C)C(=O)N[C@@H](Cc1ccc(O)cc1)C(=O)N[C@@H](CC(N)=O)C(=O)N[C@H](CCCNC(=N)N)C(N)=O; assay = broth microdilution; system = ATCC 25922; setting = 18 h, 37 °C, 25% MHB2; MIC = 8 µg/mL
Structure (SMILES) = CC1(C)[C@H](NC(=O)/C(=N\OC2(C(=O)O)CCCCC2)c2csc(N)n2)C(=O)N1OS(=O)(=O)O; assay = agar dilution; system = 08-85, mcr-1; MIC = 2 µg/mL
Structure (SMILES) = CC[C@H](C)[C@H](NC(=O)[C@@H](CCCNC(=N)N)NC(=O)[C@H](CCCNC(=N)N)NC(=O)[C@@H]1CCCN1C(=O)[C@@H]1CCCN1C(=O)[C@H](CCCNC(=N)N)NC(=O)[C@@H]1CCCN1C(=O)[C@H](CCCNC(=N)N)NC(=O)[C@@H]1CCCN1C(=O)[C@H](CC(C)C)NC(=O)[C@H](Cc1ccc(O)cc1)NC(=O)[C@@H]1CCCN1C(=O)[C@@H]1CCCN1C(=O)[C@H](CCCCN)NC(=O)[C@H](CC(=O)O)NC(=O)[C@@H](N)C(C)C)C(=O)N[C@@H](Cc1cc(I)c(O)c(I)c1)C(=O)N[C@@H](CC(N)=O)C(=O)N[C@H](CCCNC(=N)N)C(N)=O; assay = broth microdilution; system = ATCC 25922; setting = 18 h, 37 °C, 25% MHB2; MIC = 16 µg/mL
Structure (SMILES) = CC1(C)[C@H](NC(=O)/C(=N\OCC(=O)N2CCC[C@@H]2C(=O)O)c2nsc(N)n2)C(=O)N1OS(=O)(=O)O; assay = agar dilution; system = CDC 1001728, NDM-1; MIC = 16 µg/mL
Structure (SMILES) = CCCCCCCCCCCC(=O)C(C)C(=O)N1CCC[C@H]1C(=O)NC(C)(C)C(=O)NC(C)(C)C(=O)NC(C)(C)C(=O)N[C@](C)(CC)C(=O)NCCC(=O)N[C@@H](C)C(=O)N[C@](C)(CC)C(=O)N[C@@H](C)C(=O)N[C@@H](CC(C)C)C(=O)N[C@](C)(CC)C(=O)NCCC(=O)N[C@@H](C)C(=O)N[C@](C)(CC)C(=O)NCCC(=O)N[C@@H](C)C(=O)NC(C)(C)C(=O)NC(C)(C)C(=O)NC(C)(C)C(=O)N[C@@H](C)C(=O)N[C@@H](CC(=O)O)C(=O)O (some centres unmarked); system = BW25113; MIC = > 128 µg/mL
Structure (SMILES) = CC(C)[C@H](NC(=O)[C@H](CCCNC(=N)N)NC(=O)[C@H](Cc1ccccc1)NC(=O)[C@H](CS)NC(=O)[C@@H](N)Cc1c[nH]c2ccccc12)C(=O)N[C@@H](CS)C(=O)N[C@@H](Cc1ccccc1)C(=O)N[C@@H](CCCCN)C(=O)NCC(=O)N[C@@H](Cc1ccccc1)C(=O)N[C@@H](CS)C(=O)N[C@@H](Cc1ccc(O)cc1)C(=O)N[C@@H](CCCNC(=N)N)C(=O)N[C@@H](Cc1ccccc1)C(=O)N[C@@H](CS)C(=O)O; assay = broth microdilution; system = K88, Mueller-Hinton broth; setting = 37 °C; MIC = 70.3 µg/mL
Structure (SMILES) = CC1(C)S[C@@H]2[C@H](NC(=O)[C@H](NC(=O)C3=C(O)C(c4ccccc4F)NC3=O)c3ccccc3)C(=O)N2[C@H]1C(=O)O (some centres unmarked); assay = broth microdilution; system = isolate IU, CTX-M-14, TEM-1; setting = with: clavulanic acid 6 µg/mL; MIC = > 200 µg/mL
Structure (SMILES) = COc1c(NC(=O)c2ccc(NC(=O)c3ccc(NC(=O)[C@H](CC(N)=O)NC(=O)c4ccc(NC(=O)[C@@H](N)Cc5ccccc5)cc4)cc3)c(OC)c2O)ccc(C(=O)O)c1O; system = MerR family clone; setting = 16 h, 37 °C; MIC = > 64 µg/mL
Structure (SMILES) = C[C@H](CS)C(=O)Nc1cccc(-c2nn[nH]n2)c1; system = DH5a pET28-lacUV5-VIM-2; setting = 100 µM, no meropenem; MIC = > 64 µg/mL
Structure (SMILES) = CC[C@H](C)[C@H](NC(=O)[C@@H](CCCNC(=N)N)NC(=O)[C@H](CCCNC(=N)N)NC(=O)[C@H](CC(C)C)NC(=O)[C@H](Cc1c[nH]c2ccccc12)NC(=O)[C@H](CCCNC(=N)N)NC(=O)[C@@H]1CCCN1C(=O)[C@H](CCCNC(=N)N)NC(=O)[C@@H]1CCCN1C(=O)[C@H](CC(C)C)NC(=O)[C@H](Cc1ccc(O)cc1)NC(=O)[C@@H]1CCCN1C(=O)[C@@H]1CCCN1C(=O)[C@H](CCCCN)NC(=O)[C@H](CC(=O)O)NC(=O)[C@@H](N)C(C)C)C(=O)N[C@@H](Cc1ccc(O)cc1)C(=O)N[C@@H](CC(N)=O)C(=O)N[C@H](CCCNC(=N)N)C(N)=O; assay = broth microdilution; system = ATCC 25922; setting = 18 h, 37 °C, 25% MHB2; MIC = 8 µg/mL
Structure (SMILES) = O=C(O)c1cn(C2CC2)c2cc(N3CCNCC3)c(F)cc2c1=O; assay = broth dilution; system = drug-resistant; MIC = > 200 µM
